Experimental data from different studies.
Each numbered part is a random draw from the data of one study; scales do not carry over between parts. Substitutions count along the parent as printed.

Series 1
Target: Interferon regulatory factor 5, full length, phosphomimetic (IRF5, Homo sapiens, UniProt Q13568-2, residues 1-514, K96S/S451D/S453D/S456D/S462D)
Method: protein-binding microarray
Molecule type: double-stranded DNA, one strand shown
Medium: in vitro
Tested at: 250 nM
Notes: 60-bp whole probe
Together with: salmon DNA 0.4 mg/ml
Baseline: random background probes
Reading: higher = stronger binding
Shared flanks, not repeated: GCCTAGCAC … GTCTTGATTCGCTTGACGCTGCTG
`GACGGTATCGGTCTCGTGACGTGCTAG` gave a log fluorescence of 5.26 z-score.
With `GGGCATTTGGAAAATGTAAACGTGCTA` the log fluorescence was -0.0546 z-score.
The log fluorescence of `GACGGTATCGGGTTTCGGGAGGTGCTA` is reported as 4.38 z-score.
With `TTAGAACTGAGTTTCGATAAGTGCTAG` the log fluorescence was 8.78 z-score.
For `TTAGGTTCCCTCTTCCTTTAGTGCTAG`, the log fluorescence was 0.0665 z-score.
For `TTAGGTATCCGGTATCGGTTAGTGCTA`, the log fluorescence was 5.4 z-score.
For `TTACGTATCGGTTTCGGTTAGTGCTAG`, the log fluorescence was 11.4 z-score.
`TCTGTTTTTGCTTTCCTTCAGTGCTAG` gave a log fluorescence of 2.39 z-score.
`TTAGCTATCGGGTATCGGTTAGTGCTA` has a log fluorescence of 6.97 z-score.
For `TCAACTTTGGAGATGACACTGTGCTAG`, the log fluorescence was -0.0526 z-score.
`GACGATATCGGGACTGGAGCCGTGCTA` gave a log fluorescence of 0.916 z-score.
For `TTACGTTTCCTTATCCTTTAGTGCTAG`, the log fluorescence was 1.8 z-score.

Series 2
Target: PABPC1L2, full length, GST fusion (mouse, UniProt A0ABA7IW68)
Method: RNAcompete
Molecule type: RNA
Medium: in vitro
Tested at: 20 nM
Notes: 7-mer, probes averaged, single round
Baseline: mean of 7-mers
Reading: higher = stronger binding
Construct (chain): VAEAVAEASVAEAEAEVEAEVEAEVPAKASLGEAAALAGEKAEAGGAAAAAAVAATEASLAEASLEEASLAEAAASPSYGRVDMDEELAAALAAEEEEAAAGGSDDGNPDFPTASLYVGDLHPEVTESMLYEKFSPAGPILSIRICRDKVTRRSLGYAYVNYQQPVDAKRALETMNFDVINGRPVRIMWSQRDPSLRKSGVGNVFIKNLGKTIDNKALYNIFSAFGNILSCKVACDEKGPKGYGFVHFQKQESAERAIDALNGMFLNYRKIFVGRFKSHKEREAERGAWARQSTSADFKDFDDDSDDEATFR
`AGAGUCC` has a 7-mer Z-score of -0.336.
For `UAUCGCA`, the 7-mer Z-score was -0.318.
For `CGACUUU`, the 7-mer Z-score was -0.133.
`CUUGGAC` gave a 7-mer Z-score of -0.0301.
The 7-mer Z-score of `CGCUUGG` is reported as -0.166.
The 7-mer Z-score of `UUAAAUC` is reported as 0.164.
The 7-mer Z-score of `GAUGCAU` is reported as -0.237.
`AUAUAGA` has a 7-mer Z-score of 0.00617.
`CUACGCG` has a 7-mer Z-score of -0.345.
For `UUGGGAC`, the 7-mer Z-score was 0.387.
`AGGCCAG` has a 7-mer Z-score of 0.075.
`UCCCAAA` has a 7-mer Z-score of 0.334.
`CAGGCGC` gave a 7-mer Z-score of -0.166.
With `CUACCCA` the 7-mer Z-score was -0.248.
With `AGACAGA` the 7-mer Z-score was 0.0623.
With `AAGUAUU` the 7-mer Z-score was -0.00652.

Series 3
Target: CCNB1, cyclin fold, Cln2 fusion (human)
Method: yeast growth competition, sequencing
Medium: yeast
Notes: strong parent motif
Baseline: not given
Reading: higher = stronger binding
Parent: INSM1 docking peptide (human); PKAIRKLHFEDEV; partner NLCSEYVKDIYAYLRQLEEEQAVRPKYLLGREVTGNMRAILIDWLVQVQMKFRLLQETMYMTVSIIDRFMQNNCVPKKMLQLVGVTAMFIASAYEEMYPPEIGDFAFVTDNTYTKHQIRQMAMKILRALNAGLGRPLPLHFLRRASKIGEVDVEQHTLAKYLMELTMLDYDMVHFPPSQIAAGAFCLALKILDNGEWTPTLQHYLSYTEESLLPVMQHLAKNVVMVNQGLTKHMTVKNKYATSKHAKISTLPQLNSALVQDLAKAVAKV
Under “normalised enrichment score”, `PGAIRKLHFEDEV [K2G]` is recorded as 3.78.
`PKAIRKDHFEDEV [L7D]`: “normalised enrichment score” -0.123.
`PKAIRKLEFEDEV [H8E]`: “normalised enrichment score” 3.38.
`PKATRKLHFEDEV [I4T]` — result for “normalised enrichment score”: 1.31.
`PKANRKLHFEDEV [I4N]`: “normalised enrichment score” 2.05.
For `PKAIRKLHFHDEV [E10H]`, “normalised enrichment score” read 1.28.
Under “normalised enrichment score”, `PKYIRKLHFEDEV [A3Y]` is recorded as 2.04.
For `PKAIRLLHFEDEV [K6L]`, “normalised enrichment score” read 0.333.
Under “normalised enrichment score”, `PKAIRKKHFEDEV [L7K]` is recorded as 0.173.
Under “normalised enrichment score”, `PKAIRKLHFFDEV [E10F]` is recorded as 1.29.
`PKAHRKLHFEDEV [I4H]`: “normalised enrichment score” 0.539.
Under “normalised enrichment score”, `PKAIRKLHFEREV [D11R]` is recorded as 0.687.
For `PKVIRKLHFEDEV [A3V]`, “normalised enrichment score” read 5.92.
`PKAIYKLHFEDEV [R5Y]` — result for “normalised enrichment score”: 0.443.
`PKAIRKLHFEDKV [E12K]`: “normalised enrichment score” 1.25.
`PKAIRKLNFEDEV [H8N]`: “normalised enrichment score” 3.12.

Further values, each from its own experiment
`PhoQ, residues 284 288 289 292 302 303 ALVSVA` gave a fold induction of 0.877 (PhoP, residues 12 14 15 18 19 NYFTV (Escherichia coli, UniProt P23836); Sort-seq, measured: YFP reporter; E. coli; PhoQ-PhoP variant library, together with: 10 µM Mg2+; baseline: high Mg2+ state, higher = stronger signaling).

A few entries again (series 1):
`GACGGTATCGGTCTCGTGACGTGCTAG` gave a log fluorescence of 5.26 z-score.
For `TTAGGTATCCGGTATCGGTTAGTGCTA`, the log fluorescence was 5.4 z-score.
For `TTACGTTTCCTTATCCTTTAGTGCTAG`, the log fluorescence was 1.8 z-score.
